Measured values pooled from the literature.
Each numbered part is a random draw from the data of one study; scales do not carry over between parts.

Set 1 — method: protein binding microarray; molecule type: double-stranded DNA, one strand shown; medium: in vitro; tested at: not given; reference: not given; direction: higher = stronger binding; measurement: E-score
Target: Histone acetyltransferase KAT6A, winged helix 2, GST fusion (KAT6A, Homo sapiens, UniProt Q92794, residues 85-181)
Notes: 8-mer, flanks averaged, mean of 2 arrays, mostly near background
Residues (chain): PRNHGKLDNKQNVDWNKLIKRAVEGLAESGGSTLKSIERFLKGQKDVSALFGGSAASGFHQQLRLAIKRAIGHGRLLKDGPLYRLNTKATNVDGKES
AAGTCTTG: -0.0804
CTACTAAG: -0.162
CCGTTGTC: 0.0644
CCATTTTC: 0.0399
CATAAATA: -0.13
CGTTGCGA: 0.00351
GGAGCCGA: 0.122

Set 2 — method: protein-binding microarray; molecule type: double-stranded DNA, one strand shown; medium: in vitro; tested at: not given; direction: higher = stronger binding; measurement: E-score
Target: Protein C-ets-1 (ETS1, Homo sapiens, UniProt P14921, residues 1-441, full length assumed)
Notes: k-mer, scored over probes, only values ≥0.25
Target sequence (chain): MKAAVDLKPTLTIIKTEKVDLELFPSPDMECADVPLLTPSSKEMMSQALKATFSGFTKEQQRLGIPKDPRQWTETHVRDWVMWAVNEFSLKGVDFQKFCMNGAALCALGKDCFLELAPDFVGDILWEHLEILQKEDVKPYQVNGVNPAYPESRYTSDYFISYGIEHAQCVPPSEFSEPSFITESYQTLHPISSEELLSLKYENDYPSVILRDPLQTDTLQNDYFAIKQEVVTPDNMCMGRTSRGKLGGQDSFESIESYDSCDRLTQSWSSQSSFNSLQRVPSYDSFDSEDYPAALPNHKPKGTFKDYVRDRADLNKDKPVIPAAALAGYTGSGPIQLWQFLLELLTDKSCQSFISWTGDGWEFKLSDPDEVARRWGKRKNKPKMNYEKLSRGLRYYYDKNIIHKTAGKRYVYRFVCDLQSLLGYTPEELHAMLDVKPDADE
ACTGGAAG: 0.348
CGGATGGA: 0.445
CATCCGGC: 0.492
CGGGATGC: 0.338
AATGTCCG: 0.312
CGGCATCC: 0.418

Set 3 — method: Sort-seq; item: YFP reporter; medium: E. coli; notes: PhoQ-PhoP variant library; with: 10 µM Mg2+; reference: high Mg2+ state; direction: higher = stronger signaling; measurement: fold induction
Molecule: PhoQ, residues 284 288 289 292 302 303 SASVAL
PhoP, residues 12 14 15 18 19 AYFRS (Escherichia coli, UniProt P23836): 20.6
PhoP, residues 12 14 15 18 19 SFCSL (Escherichia coli, UniProt P23836): 15.6
PhoP, residues 12 14 15 18 19 HHYTI (Escherichia coli, UniProt P23836): 1.05

Set 4 — method: RNA Bind-n-Seq; molecule type: RNA; medium: in vitro; tested at: 365 nM; reference: no-protein control; direction: higher = stronger binding; measurement: RBNS enrichment (R)
Target: RNA binding protein fox-1 homolog 2, RRM domain, GST-SBP tag (RBFOX2, Homo sapiens, UniProt O43251-10, residues 100-194)
Notes: natural RNA segment, single round, ends assumed
All sequences stand within: GGGAGUUCUACAGUCCGACGAUC … UGGAAUUCUCGGGUGCCAA
Residues (chain): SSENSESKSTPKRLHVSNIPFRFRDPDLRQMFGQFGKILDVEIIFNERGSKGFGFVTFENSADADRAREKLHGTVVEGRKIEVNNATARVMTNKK
AUAAUUGUCAAAAACCAGAAUUAGGUCAAGUUCAUAGUUUCUGUAAUUGGCUUUUGAAUCAAAGAAUAGGGAGACAAUCUAAAAAAUAUCUUAGGUUGGAGAUGACAGAA: 0.4
CGGCCACCUUCCCUCCCAUCUUUGGCAGACAGAAGUCUCAGCUCUCACUAGAGGGAAGACCUGGGCAUCCUGCUGGCUCCUCUCUCCGUGGGGCCUGGAGUCUGGUGCUG: 0.22
CUCACGCUGAUGGCUUGGCAGAGCACCUUCGGUUAACUUGCAUCUCCAGAUUGAUUACUCAAGCAGACAGCACACGAAAUACUAUUUUUCUCCUAAUAUGCUGUUUCCAU: 0.31
AGAAAUGUUCAUAAUUUUAAUGGAUAUCCUUUGGUGUGAAUAAUUGAAUACAGAGUUUUUAAAAUAUUUUCACGUAUAUCACUUGCUCUCAUUUGUGGGGAAGAUAAUAG: 0.483
UGCAAGUUGACUCUGGUUAUGCAAGAAUGUGUAACAGAUCAAGAGAUCCUCUCAAGUGUCUAUUAGAUAGGCAAUAAGAACUGCAGUGUAGCUGGGAAGCAUCUUUUAGC: 3.03
CGACAGGGCGUGCCUCUCCCACUGCAGCCCCUGUGGUGGUGGCUGCCUAAUUCAGUUCCAGCUCUCACUCUACUCACCCAUGCCUCUAGCUGCACAAUGUUAUGGCACUA: 1.47
UUUUGUAACCUUUAGUGGGUUCCACGGUUGAGAUUUAGCACUGGAGCCAGGCAUGGUGGUAUACUCCAUUAAUCACUCAGGAGGCAGAGGCAGGUGGAUCUCUGUGAGUU: 1.94
ACCUAGCUUUGUCUUUGCCCCAGGUCCCCAUGAACUUCCCUGUCCUCAGCUGAAUGCCUCCAAGUCCCUGGCCUGUAGCUUCUCCCAGGCUUAUCAUCCAAUCCCCUUUA: 0.453
